Measured values from different studies.
A part holds a random share of what one study measured.

Sample 1 — technique: RNA Bind-n-Seq; molecule type: RNA; medium: in vitro; tested at: not given; notes: RNA with constant flanks, ends assumed; baseline: input RNA pool; direction: higher = stronger binding; quantity: bound/input enrichment
Target: RING finger protein unkempt homolog, zinc fingers 1-6, GST-SBP tag (UNK, Homo sapiens, UniProt Q9C0B0, residues 30-357)
All sequences stand within: GGGAGUUCUACAGUCCGACGAUC … CAACAGAGGAUUGAGCAUCA
Target sequence (chain): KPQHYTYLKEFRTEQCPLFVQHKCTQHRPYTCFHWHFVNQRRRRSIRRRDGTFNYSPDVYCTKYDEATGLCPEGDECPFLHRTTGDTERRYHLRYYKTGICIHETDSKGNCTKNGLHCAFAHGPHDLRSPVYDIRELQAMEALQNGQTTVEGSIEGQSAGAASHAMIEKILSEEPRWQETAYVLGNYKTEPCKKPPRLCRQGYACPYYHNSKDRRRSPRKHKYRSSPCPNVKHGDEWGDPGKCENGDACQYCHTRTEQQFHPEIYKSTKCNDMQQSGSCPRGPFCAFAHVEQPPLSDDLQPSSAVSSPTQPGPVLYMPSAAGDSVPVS
AAGCACUCAAAGCAAAGAAAGAAGAUGGGAAUAAAGCAUUUAAGGAAGGAAAUUACAAACCCGCAUAUGAACUGUACACAGAAGCCCUGGGGAUAGACCCCAACAAUAUAAAAACAAAUG: 0.533 ratio
UUGAAACAAGUUCUCGGCCAGAUGGUGAUUGAUGAAGAGCUGUUGGGAGAUGGACACAGCUACCGCCCUAGAGCUAUUCAUUCAUGGUUGACAAGAGCCAUGUACAGCCGCCGCUCCAAG: 0.116 ratio
CUGACCGGCGGGUCCCAGAGACCUGCCCCCAAGGUGUCCCACUGUGUGGCUAAGGGUGGGACCGAACCCGGGCUGGGAGAGCCGGGUUAUGGGUUCCAGUGGUGGUUCCGCCGCUUCCUU: 0.18 ratio
CUUUGUUUCUUGGGGCAUUUUUCCUUUUUUUUUUUUUUUUGUUUUUUUUUUACCCCUCCUCCGCUUUAUGCGCUCAGAAACCAAAUUAAACCCCCCCCCCAUGUAACAGGGGGGCAGUGA: 6.74 ratio
GGGGACAGUGUUGGGAUUGUCAAGGAAAAAGGGGUAGGAAGGAAGGUGGAGGGAUUGAUCCCGUACCAGGGAGAAUAUUCCACUGAACUGUGAUUCUAUGGCUUGGGGCGGAGGGUGGGG: 0.465 ratio
UGGUUGCUCCUUUGUCAAACUGGGAUGAAAGCAAUGGCUAUUCCUCUGUUCUUUCAGACCGUAAUGGGAGCUUUUACUGGCUUACAUCAUUACAAUAUAUGUGAAAAACCACGUGCAAGG: 0.147 ratio
CAGACUGGCAACUGUUUUGUAGCAAGAGCCAUAGGUAGCCUUACUACUUGGGCCUCUUUCCCGUUUUGAAUUAUUUCUAAGCCUUUUGGGUAUGAUUAGAGUGAAAAUGGCAGCCAGCAA: 0.551 ratio
GACCCAGAAAAUAAUCGGGGACAAGAAUCCUUUCCUAGGACUGCUGGACAAGAGGAUCGCCGUCUAAAAAUUAUCAAAAGAACAAAGAAACCCGACCUGCAGAUCUAUCAGCCUGGACGA: 0.591 ratio
UAUACCUCCAGAGAGCAGACUGUCUACUACGCCAAAGCAUUCUCGAGAGAUUUGCCCAGAGCUGCCGAAAUUCUUGCUGACAUAAUUCAGAACAGCACACUGGGAGAAGCAGAGAUUGAG: 0.0931 ratio
GGUUUAAACUUUUAAUUCUGUAUUUCAUGAUUAUAAGUCUUGCUAGAAUUUUUUCUAAUCUUCCGCCGAUUUGAUUAAAUAAUGAUUCACAGAAUUUAGUAACAGAAUCAAACUAAGCCA: 0.96 ratio
UGGACAGAAAAGAUAAUGAAGCAGACCGAAGUGCUGUUGCAGCCAAAUCCAAAUGCCAGGACCGAAGAAUUUGUUUAUGAGAAACUGGAUAGAAAAGCACCAAGUCGUAUAAACAACCCG: 0.286 ratio

Sample 2 — technique: universal PBM; molecule type: double-stranded DNA, one strand shown; medium: in vitro; tested at: not given; direction: higher = stronger binding; quantity: E-score
Target: Sal-like protein 4, full length isoform B (SALL4, Homo sapiens, UniProt Q9UJQ4-2, residues 1-616)
Notes: 8-mer, flanks averaged, mean of replicates
Residues (chain): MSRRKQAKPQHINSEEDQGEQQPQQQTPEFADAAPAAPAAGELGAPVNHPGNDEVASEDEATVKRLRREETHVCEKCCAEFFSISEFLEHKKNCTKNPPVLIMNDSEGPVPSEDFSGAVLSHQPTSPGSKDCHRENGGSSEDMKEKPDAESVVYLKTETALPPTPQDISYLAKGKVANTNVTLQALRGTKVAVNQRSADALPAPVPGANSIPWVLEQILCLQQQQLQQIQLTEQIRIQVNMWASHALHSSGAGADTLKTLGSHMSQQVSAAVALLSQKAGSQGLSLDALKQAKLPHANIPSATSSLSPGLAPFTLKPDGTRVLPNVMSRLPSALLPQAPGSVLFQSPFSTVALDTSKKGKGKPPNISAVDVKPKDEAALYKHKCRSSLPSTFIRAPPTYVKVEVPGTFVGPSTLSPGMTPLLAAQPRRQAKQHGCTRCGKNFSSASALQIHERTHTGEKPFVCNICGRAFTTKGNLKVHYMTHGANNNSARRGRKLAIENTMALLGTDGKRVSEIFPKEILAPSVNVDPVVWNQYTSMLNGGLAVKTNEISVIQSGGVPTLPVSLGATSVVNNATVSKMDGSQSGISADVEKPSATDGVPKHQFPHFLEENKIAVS
AACAAAAG: 0.186
GACGAAAA: 0.253
AGTGTCAA: -0.00495
GCGGGGCC: -0.418
AAGAGTTG: 0.0943
AAAGTGTT: 0.162
ACCAAGAA: 0.0511
CCTCCTTA: -0.0238
CCTACATA: 0.0459
CGTACTGA: 0.0867
CACGTTCC: -0.132
GAGTGGTA: -0.0872
AATAACCA: 0.337
GACGGCTA: -0.0154
CGGCGGAC: -0.319
CCGCCGAG: -0.289
AGAGCGTG: -0.136
CTGGGGAA: -0.341

Sample 3 — technique: protein-binding microarray; molecule type: double-stranded DNA, one strand shown; medium: in vitro; tested at: 940 nM top; notes: 60-bp whole probe; together with: salmon DNA 0.4 mg/ml; baseline: random background probes; direction: higher = stronger binding; quantity: fitted relative affinity; all sequences stand within: GCCTAGCAC … GTCTTGATTCGCTTGACGCTGCTG
Target: Interferon regulatory factor 5, full length, phosphomimetic (IRF5, Homo sapiens, UniProt Q13568-2, residues 1-514, S451D/S453D/S456D/S462D)
TCAAGGATGGTTTTCAGACTGTGCTAG: -0.535 z-score
GACGGTATAGGACTGGGGACGTGCTAG: -0.467 z-score
GACGGTATCGTGACTGGGGACGTGCTA: 0.926 z-score
CATTTTCTCTTATTCTAACAGTGCTAG: 2.29 z-score
TTAGTTATCCTACTGCTTTAGTGCTAG: 0.448 z-score
GACGATTTCGGGTTTCGAGCCGTGCTA: 1.91 z-score
TTAGGACTGGTGACTGGGTTAGTGCTA: -0.473 z-score
GACAGTTTCGACTTTCGGGACGTGCTA: 8.28 z-score
TTAGGTCTCGGACTGCGTTAGTGCTAG: 0.877 z-score
GACGAACTGGGGACTGGAGACGTGCTA: 0.0364 z-score
AGGCCCTTTGCTTTCCTGATGTGCTAG: 0.143 z-score
GTACATCTCTCTTAAATAGGGTGCTAG: 0.779 z-score
TTAGATATTAGTCTCGATTAGTGCTAG: 3.69 z-score
GACCGTTTCGGTTTCGGGACGTGCTAG: 9.38 z-score
GACGGTCTCTGTATCGGGACGTGCTAG: 1.17 z-score
GCGCCTTGATGTCTGGGTCTGTGCTAG: -0.351 z-score

Sample 4 — technique: RNA Bind-n-Seq; molecule type: RNA; medium: in vitro; tested at: 365 nM; baseline: no-protein control; direction: higher = stronger binding; quantity: RBNS enrichment (R)
Target: RNA binding protein fox-1 homolog 2, RRM domain, GST-SBP tag (RBFOX2, Homo sapiens, UniProt O43251-10, residues 100-194)
Notes: natural RNA segment, single round, ends assumed
All sequences stand within: GGGAGUUCUACAGUCCGACGAUC … UGGAAUUCUCGGGUGCCAA
Construct (chain): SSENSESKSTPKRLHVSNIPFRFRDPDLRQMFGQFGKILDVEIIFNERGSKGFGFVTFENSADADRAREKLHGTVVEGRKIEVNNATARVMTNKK
UCUUAGAAGCCAUAGAUUUGGACAAGCCCAGCAAGAUGGGUGUCCUUCCAGGCCUCUUCCCCUUUCCUCCAUCUCUGGCAACAGUUCUUGGGGUUUGGCAAUUGUUUGGA: 0.324
CAAUGAAGAAGGUCUCAUUAUCUCCAUGAUAAAGAUGGGGAAACUAAGGUCAGAAGGGUUAACUCAACUGUCUAUUGUCACAUGAUGAAUAAAUAGAUGAAGUGAGAUAC: 0.361
CCAGGAGAAGCCAUUAAAAGCCACUGGUUAUUUUAUUUUUCAUCAGGCAAUUUUCGAGGUUUUUAUUUGUUCGGUAUUGUUUUUUUACACUGUGGUACAUAUAAGCAACU: 0.582
GGUCAGUUUCAUGGUGAUGGCUACUGUGUACUGUGUAGGUUACCUGGGUCAAGACUGGUCCAGCUUAGAGUGCAUGCUCUGUUCAUACUCAGCCUAGCUCACAGUGACUU: 2.62
AAGUAACAAGGUGUCUUUUCCACUCCUAUGGAAAAGGGUCUUCUUGGCAGCUUAACAUUGACUUCUUGGUUUGGGGAGAAAUAAAUUUUGUUUCAGAAUUUUGUAUAUUG: 0.376
CCCUCUCGGCUCACAUGUUCACAGUGCAGCUCCUGGCAGACUUGGGUUUUCUCUUUGGUGGUUUCUAAAGUGCCUUAUCUGCAAACAACUUCUUUUCUCCUUCAGGAACU: 0.331
UAUCUAUCUUAUUUCAGUACUUCGGCAAGAGAGAACCUAACUGUAUCUUUGAGGCGAUAGUAGAACACAGAGGCCAGUAACGGGUCGUAAUGACUUACUGUGGAUAACAA: 0.478
GCACAGGUGCAGGCAAACCCUUCCAGCUGGGUUAAUUGCCGUUUAUGGUUUACUCACUUAGGGAAAGGGCUUAGGUGUUAGGCUGUGGGCUGCUUCUCCCUAACCAUCCA: 0.515
CCUCUCCUGUCCCCUUCUGUGUGCACAUAGGUCCAUAGGCUCAUUAGAGGGAUGAGAGUUCCCAUUAAGCACUCCAUGCAAUGGCCUCUCACUGUUUAAAGAACACACUU: 0.297
CAACCCACAGGUUGAGAACUACUGCUCUAAGCCAAAGAUGAAAAUGGGAUUUACAUGCAGAACAAAAGAUACUGUCAAAGGCUGUGGGGUUGCAGCUCAAAUAUUUAAGU: 0.732
UGCUUGUGUGGUCCAACCUCAGUCUGGCCCCAUAGCGACUUUUGCCCCAUGAUUCUGCUUCACUGUUGGAAUCCUCUUUGAAGUUCCCCCUCUCUUUGCUAAAGCAGUGA: 0.372
CUUGCUGUGUUGCAAUAUUUUGCUGCUGGACUUUGACCUACUUGUAUUAUGCAGAAAGUUAAUGCAGAUACCUAUUCAAGAUGAUAACUGUAAAGACACUGCUGUCUCCU: 0.236

Sample 5 — technique: protein binding microarray; molecule type: double-stranded DNA, one strand shown; medium: in vitro; tested at: not given; baseline: not given; direction: higher = stronger binding; quantity: E-score
Target: Histone acetyltransferase KAT6A, winged helix 1, GST fusion (KAT6A, Homo sapiens, UniProt Q92794, residues 1-85)
Notes: 8-mer, flanks averaged, mean of 2 arrays, mostly near background
Construct (chain): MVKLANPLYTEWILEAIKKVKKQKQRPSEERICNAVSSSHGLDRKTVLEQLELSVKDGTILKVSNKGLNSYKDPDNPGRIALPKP
CTTGGTAA: -0.0889
CCATCACC: -0.0624
CTTCCTTA: -0.215
AGCGTAAT: 0.0546
CTGCGCGA: 0.261
TAGAGATA: -0.245
AGCAGAGA: -0.237
GACAGCAC: 0.0174
ACCTCCGT: 0.0359
AACTAAAT: -0.15
GCGCATGA: 0.242
GATGCTCA: -0.0899
CCAGATAA: -0.152
CTTGCCGC: 0.403
CACGGATA: 0.151
AGGACGCA: 0.174
CTCCGCGA: 0.0913
CGTGAATA: -0.0121
GAAATATA: 0.0181
CTCAGCAG: -0.244
CGAGCCCA: -0.184
GAAACCAA: -0.121
CTGGCGAC: 0.0908
CCGCGTGC: 0.369

For quick reference, copied from above (sample 5):
CTCCGCGA: 0.0913
CTTGCCGC: 0.403
CCATCACC: -0.0624
AGGACGCA: 0.174
CCGCGTGC: 0.369
GAAATATA: 0.0181
CTGCGCGA: 0.261
